Measurements of several laboratories.
Every numbered part comes from another study and shows a few of its results, in no order. Changes are numbered by the printed parent chain.

Block 1 — method: protein-binding microarray; form: double-stranded DNA, one strand shown; sample: in vitro; tested at: 940 nM top; setting: 60-bp whole probe; with: salmon DNA 0.4 mg/ml; reference: random background probes; direction: higher = stronger binding; endpoint: fitted relative affinity; all sequences stand within: GCCTAGCAC … GTCTTGATTCGCTTGACGCTGCTG
Target: Interferon regulatory factor 5, full length, phosphomimetic (IRF5, Homo sapiens, UniProt Q13568-2, residues 1-514, S451D/S453D/S456D/S462D)
Sequence = TTATGTTTCGGTTCCGGTTAGTGCTAG; result = 9.21 z-score
Sequence = TTGGATTTCGGGTATCGATTAGTGCTA; result = 3.81 z-score
Sequence = GACGATCTCAGACTGGAGAAGTGCTAG; result = -0.371 z-score
Sequence = GACGGTATCGGGGATCGGGACGTGCTA; result = 2.98 z-score
Sequence = TTAAGACTGCTTTTCCTTTAGTGCTAG; result = 0.255 z-score
Sequence = TTAAGACTGCTTATCCTTTAGTGCTAG; result = -0.0365 z-score
Sequence = TTACGACTGGGGTTTCGGTTAGTGCTA; result = 6.81 z-score
Sequence = GACGATTTTAGTCTCGAGACGTGCTAG; result = 2.23 z-score
Sequence = TTAGGACTGTACTTTCGGTTAGTGCTA; result = 3.66 z-score
Sequence = GACGAACTGAGCCTGGAGACGTGCTAG; result = -0.759 z-score
Sequence = TTACGTTTCCTTCTCCTTTAGTGCTAG; result = 2.18 z-score
Sequence = TTAGATATTAGACTGGATTAGTGCTAG; result = -0.229 z-score
Sequence = GACGATATCGGGTATCTAGACGTGCTA; result = -0.293 z-score
Sequence = GGCGATCTCAGTCTCGAGACGTGCTAG; result = 0.965 z-score
Sequence = GACGGACTGGACTACCGGGACGTGCTA; result = -0.706 z-score
Sequence = TTAGGTCTCCGTTTCCTTTAGTGCTAG; result = 0.551 z-score
Sequence = TCATTTTGGTCTTTCTGACTGTGCTAG; result = 0.525 z-score

Block 2 — method: RNA Bind-n-Seq; form: RNA; sample: in vitro; tested at: 1 µM; setting: whole 134-nt RNA, ends assumed; with: 150 mM KCl; reference: input library; direction: higher = stronger binding; endpoint: log2 enrichment
Target: Ras GTPase-activating protein-binding protein 1, RRM domain (G3BP1, Homo sapiens, UniProt Q13283)
UniProt Q13283, sequence (whole entry, looked up): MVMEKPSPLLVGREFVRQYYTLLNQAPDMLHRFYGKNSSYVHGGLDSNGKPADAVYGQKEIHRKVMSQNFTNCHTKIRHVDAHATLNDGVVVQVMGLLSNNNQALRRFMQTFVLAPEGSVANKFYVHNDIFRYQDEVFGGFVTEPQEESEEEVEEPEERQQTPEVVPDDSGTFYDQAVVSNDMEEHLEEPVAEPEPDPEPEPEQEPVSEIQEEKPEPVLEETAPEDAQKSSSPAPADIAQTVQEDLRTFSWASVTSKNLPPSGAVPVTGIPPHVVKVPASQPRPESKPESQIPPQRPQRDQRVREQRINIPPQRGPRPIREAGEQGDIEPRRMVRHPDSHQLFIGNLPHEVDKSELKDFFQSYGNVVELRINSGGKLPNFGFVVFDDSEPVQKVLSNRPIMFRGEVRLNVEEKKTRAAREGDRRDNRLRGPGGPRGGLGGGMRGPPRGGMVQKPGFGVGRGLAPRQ
All sequences stand within: GGGAGUUCUACAGUCCGACGAUC … UGGAAUUCUCGGGUGUCAAGG
Sequence = CAAGCCAAGGAAAUGGUGUUAGAGUUAAUUCGUGAUCAAGGCGGUUUCAGAGAAGUUCGGAAUGAGUAUGGGUCAAGAAUAGGAGGAAAU; result = -0.175
Sequence = UGGCCCUAGUGGCAUGCGGGGAGGAAGAGGUGGCCUCAUGGAUCGUGGUGGUCCCGGUGGAAUGUUCAGAGGUGGCCGUGGUGGAGACAG; result = 0.856
Sequence = GGAGUGCCGUGAGCAGGCCGCGGGAACGUCGCCGUCACCUUGUCUCGGGGCCUCGGCGCUGCUUCCCGCCAAAACACGUUUACCGCGCGC; result = -0.918
Sequence = GUCCUGUGCUACACAUCGUAUGUACCGAAUCGGGCCCCCGGGGCCCCCGGGCCCCCGGGAAAGUAUUAUGUUACGCCGUUCGGAUCUGCA; result = -0.627
Sequence = GCAGGAAGUAAAAUCAAAUGGAAAUGCUUCGGAUAGUGGCAGGGGUGGGGGUUGCUAAGGAAAGGGUGGGAUGGGAGUGGGUAAAGAGUU; result = 1.17
Sequence = GGACAAGAAUCCUUCAAGAAACAGGAAAAAACUCCUAAAACACCAAAAGGACCUAGUUCUGUAGAAGACAUUAAAGCAAAAAUGCAAGCA; result = -0.00455
Sequence = UGGGAGGUGGAUUUUGUUUAUUUUUUUAGCUCAUUUCCAGGGGUGGGAAUUUUUUUUUAAUAUGUGACAUGAAUAAAGUUGUUUUUGAAA; result = 2.15
Sequence = UCCUGUGCUACACAUCGUAUGUACCGAAUCGGUUUUUUUGGAAAAAAAGGUUUUUUUGGAAAGUAUUAUGUUACGCCGUUCGGAUCUGCA; result = -0.369
Sequence = UGUGCUACACAUCGUAUGUACCGAAUCGGGGUUUUUUUGGUUUUUUUGGGGUUUUUUUGGGGAAAGUAUUAUGUUACGCCGUUCGGAUCU; result = -0.312

Block 3 — method: RNA Bind-n-Seq; form: RNA; sample: in vitro; tested at: 365 nM; reference: no-protein control; direction: higher = stronger binding; endpoint: RBNS enrichment (R)
Target: RNA binding protein fox-1 homolog 2, RRM domain, GST-SBP tag (RBFOX2, Homo sapiens, UniProt O43251-10, residues 100-194)
Setting: natural RNA segment, single round, ends assumed
All sequences stand within: GGGAGUUCUACAGUCCGACGAUC … UGGAAUUCUCGGGUGCCAA
Target sequence (chain): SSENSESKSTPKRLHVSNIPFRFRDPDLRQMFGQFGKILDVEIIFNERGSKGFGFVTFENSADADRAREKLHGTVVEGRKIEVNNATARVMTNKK
Sequence = UGGAAGACCUGUUUGAAAUUAGUCUUGAUUUCACACUCAUUUAAUCUGCUGAGCACAGGGCUGUUGUCAUUUGUAAACGCAAACACUGUGGAGGUACUUCUCGCCAUCAG; result = 0.245
Sequence = GCAGCUUGGAGCCCAGGUAGGGGGCAGAGCUGUCCUCAGCUGCACUGCGGCCUGGUGGCAGUGUGGGGAGUCACACUUCUGUCCACCUGGCCUCCUCUCGCCUGGCCGCC; result = 0.351
Sequence = GUAAAAAGUGUCUUUUCUCUUAGUAUAUAAAUAAAUAAAAUGCAAAUUAAGAGUGUAAGCAGUUGUGAAUCAUUACAAGCAGUCUGGGAUAACUAACUCCUAGGGAUAAC; result = 0.43
Sequence = CUAGCAGUCACUUGAUCUCCGUGGCUUUGGUUUAAAAGACACACUUGUCCACAUAGGUUUAGAGAUAAGAGUUGGCUGGUCAACUUGAGCAUGUUACUGACAGAGGGGGU; result = 4.62
Sequence = CACCCUUUGUACCAGAUGUUGAGUGACCAGCUCUGUGGCCCUGUGUCGUCAGAGGCUUGUGAUUAACUGUGGCGGCAGACACAGCUUGUCCACAGCUUGGGCCAGGCUUC; result = 0.243
Sequence = UACUGAAGGACAAUCCUGAAGUGCUGCAGCGCAUAGUGAAUGCCUCUUGGUGUUUUCACGUUCGUCUGUGAGGACUCAUAGACUUACAGAAUGAUGCCGAAUGGAAUGUU; result = 0.977
Sequence = CUCGGACUUGUCGCCCCUUCCCAGCCCCCUCAGCGUGAUCCUCAGGGUCCUUGGUCUCUUCAGGCCCUGAGCGGGGUCAGGCACUGGGACGCCUUCCCCGCCCUCGAGGC; result = 0.488
Sequence = GUUGAAUUUUGAUUUGUCCUUGGUGGACAACUGGCUUUACCCAGUGAAGAGGGCCAGGACAGAUUGGACAGCUUAUUUCUCUAUAGCAAGUAAAAGCGUUAUGUUACAGU; result = 0.396
Sequence = GGAAGAGAGAGAGAGAGACUGACUGACUCAGAGAACUGUGUGGUAGGACAACAGCAAGAUGAGCCUGUGCAUGAAGAACUCACGGGGCACUUCCCCACAAUGCUGCAUUA; result = 16.4
Sequence = AACAGGAUAAAGUCUUGUGUAUAGCAAAGUAGUUGCAUCUGUUUAUUUUCUAUUUAUUAUUGUUACAAUAGGUAAUAGUUAUAGCAAUUAUUUAUUGAUUUGUAACAACU; result = 0.764
Sequence = AUCUAGAGGUGAAACAGGCAAGUGAAAUGGACACCUCUGCUGUGAAUGUUUUAGAGAAGGAAAUUCAAAAAAUGUUGUAACUGAAAGCACUGUUGAAUAUGGGUAUCGGC; result = 4.34
Sequence = CAGCCCUUCACAGGCCUGAACCAGUAGGGGCCAGUGGGCCAGGUAAGCCCUAGAGCCUUGAACCAGGAAUAUCCAGGAAGAGGAAAUUCCCUUUGAGCCCCCAGAUGGUA; result = 0.436

Block 4 — method: aptamer microarray, sandwich; form: DNA with 2'F-ANA; sample: in vitro; tested at: 200 nM; with: Cy3 exosite-II aptamer, 400 nM; direction: higher = stronger binding; endpoint: mean fluorescence intensity; sequence: GGTTGGTGTGGTTGG
Target: Prothrombin, mature alpha-thrombin (F2, Homo sapiens, UniProt P00734)
Setting: whole 15-mer aptamer, many near background
Modification = 2'F-ANA at 1 3 4 9 10 13 14 15; result = 58.2 a.u.
Modification = 2'F-ANA at 1 3 4 6 7 8 11 13; result = 157 a.u.
Modification = 2'F-ANA at 1 4 5 7 10 12 13 15; result = 44.6 a.u.
Modification = 2'F-ANA at 5 6 7 8 10 13 14; result = 44.1 a.u.
Modification = 2'F-ANA at 1 2 3 5 7 8 9 10 14 15; result = 51 a.u.
Modification = 2'F-ANA at 2 4 14 15; result = 107 a.u.
Modification = 2'F-ANA at 3 6 7 13; result = 913 a.u.
Modification = 2'F-ANA at 10 11 13 14; result = 115 a.u.
Modification = 2'F-ANA at 2 9 11 12; result = 635 a.u.
Modification = 2'F-ANA at 4 5 6 7 8 10 14; result = 44.3 a.u.
Modification = 2'F-ANA at 3 4 5 6 7 10 12 13 15; result = 49.7 a.u.
Modification = 2'F-ANA at 5 6 7 9 12 13 14 15; result = 45.5 a.u.
Modification = 2'F-ANA at 2 4 5 7 8 9 10 12 13 14; result = 66.1 a.u.
Modification = 2'F-ANA at 2 5 6 7 10 11 14 15; result = 46.5 a.u.
Modification = 2'F-ANA at 1 3 5 10 11 13; result = 44.1 a.u.
Modification = 2'F-ANA at 2 4 5 8 9 10 11 12 14; result = 48.3 a.u.
Modification = 2'F-ANA at 1 3 6 7 12 13 14; result = 108 a.u.
Modification = 2'F-ANA at 3 4 5 6 7 10 11 12 13 14; result = 48 a.u.
Modification = 2'F-ANA at 1 4 5 11 13 14; result = 47.6 a.u.
Modification = 2'F-ANA at 1 2 3 4 12; result = 338 a.u.
Modification = 2'F-ANA at 2 5 6 9 10 11 12 14 15; result = 48.8 a.u.
Modification = 2'F-ANA at 1 2 8 9 11 12 14 15; result = 68.4 a.u.
Modification = 2'F-ANA at 2 4 5 7 8 10 15; result = 46.2 a.u.
Modification = 2'F-ANA at 1 3 5 10 11 12 13 14 15; result = 50 a.u.
Modification = 2'F-ANA at 1 4 9 12; result = 298 a.u.

Block 5 — target: CCNB1, cyclin fold, Cln2 fusion (human); method: yeast growth competition, sequencing; sample: yeast; setting: weak parent motif; reference: not given; direction: higher = stronger binding; endpoint: normalised enrichment score
Parent: ORC1 docking peptide (human); PRARKRLELGNLG
Change = L7G; result = 0.204
Change = G10T; result = -0.482
Change = L9C; result = 1.03
Change = A3M; result = 1.67
Change = L12G; result = 0.207
Change = P1N; result = 0.675
Change = R2A; result = 0.462
Change = K5F; result = 0.0852
Change = P1S; result = 0.385
Change = K5E; result = 0.151
Change = K5R L9F; result = 0.598
Change = L9M; result = 0.974
Change = L12N; result = 0.631
Change = L12C; result = 0.497
Change = K5D; result = 0.468
Change = E8L; result = 0.5
Change = L7A; result = 0.617

Repeated from above (block 4):
Modification = 2'F-ANA at 1 4 5 11 13 14; result = 47.6 a.u.
Modification = 2'F-ANA at 1 2 3 4 12; result = 338 a.u.
Modification = 2'F-ANA at 2 5 6 9 10 11 12 14 15; result = 48.8 a.u.
Modification = 2'F-ANA at 1 2 8 9 11 12 14 15; result = 68.4 a.u.
Modification = 2'F-ANA at 2 4 5 7 8 10 15; result = 46.2 a.u.
